# Measurements pooled from the literature.
# Every numbered part comes from another study and shows a few of its results, in no order.

# Block 1
# Target: RING finger protein unkempt homolog, zinc fingers 1-6, GST-SBP tag (UNK, Homo sapiens, UniProt Q9C0B0, residues 30-357)
# Sequence of UniProt Q9C0B0 (30-357, looked up): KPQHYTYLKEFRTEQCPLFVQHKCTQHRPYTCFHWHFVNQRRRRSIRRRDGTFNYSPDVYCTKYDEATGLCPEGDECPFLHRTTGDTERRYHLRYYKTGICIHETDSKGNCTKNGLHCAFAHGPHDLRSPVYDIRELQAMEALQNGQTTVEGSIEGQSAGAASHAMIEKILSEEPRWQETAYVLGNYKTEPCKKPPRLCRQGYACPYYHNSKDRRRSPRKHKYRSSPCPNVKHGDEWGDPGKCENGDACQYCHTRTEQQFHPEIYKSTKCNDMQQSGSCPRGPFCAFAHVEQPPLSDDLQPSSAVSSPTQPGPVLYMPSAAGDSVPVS
# Method: RNA Bind-n-Seq
# Molecule type: RNA
# Matrix: in vitro
# Tested at: not given
# Notes: RNA with constant flanks, human and mouse sites, ends assumed
# Relative to: input RNA pool
# Reading: higher = stronger binding
Oligonucleotide,bound/input enrichment
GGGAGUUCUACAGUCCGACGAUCCUUACCAAGCACUUGCUGAAGACAGUGUGUACCGAUAUCACUAACCUCAUGUUCAACUUCCUAGCCUCAGAUUUCCUCAUGGCAGUGGAGGAGCCUGCAGCCAUUACAAGUGAUAUAAGACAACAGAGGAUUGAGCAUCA,0.312 ratio
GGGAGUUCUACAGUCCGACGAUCACCAAGUGUACUGUACUCACCCCCCAGGAUAGAGAAGUGUUUGUUAGGGAGAGAAGAGGGAGAGGCAGGAGCCGGCCCAAGCCCAGGGUCCCUGCUUGGGCCCCAGAAAGCACUUAACCACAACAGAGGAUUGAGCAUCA,0.484 ratio
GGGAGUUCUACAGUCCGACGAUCCACGUCAUGCAUUUUUCUAAAUGGGCUGUUUCCAGUGGCAGCAGCACAGCCUUGCUGUACAGCAAGCGGCUGAUUACAUACAGGUUACGGCACCUUCUUCGUGCAAGGUGUGAUGCUUCUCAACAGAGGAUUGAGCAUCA,0.138 ratio
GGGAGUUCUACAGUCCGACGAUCUAGGCCUGUGUGUGUGUGUGAGUGUGUGUGUAUAUGGGUGUGGGUGUGUUUGUGUGUGGUGGUUGUGGGGGGGGUGUUGGAGGUUCUAUUUCAUUUAAAAAUGUAUUCAUUUCCCUGGCCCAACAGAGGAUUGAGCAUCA,7.96 ratio
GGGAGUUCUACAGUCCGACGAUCCUUCAGAAACAUGUAGAGGAUUUGUUGACAAAAUUAAAAGAGGCCAAAGAACAGCAGGCCAGUAUGGAAGAGAAAUUCCACAAUGAGUUAAAUGCUCACAUAAAGCUCUCUAAUCUCUACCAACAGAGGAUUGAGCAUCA,0.101 ratio
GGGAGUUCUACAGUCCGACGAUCUACAUCUUCCGCGUGCUGCUGCAGGUGUUCCUGGAAUGCUGCAUUUACUGGGUAGGAUUCGCUUUUCGAAAUCCUCCAGGGACACAGCCCAUUGCGAGAAGUGAGGUGUUCAGGUACUCCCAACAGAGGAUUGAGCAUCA,0.125 ratio
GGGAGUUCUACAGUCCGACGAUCAGCCUGCACAGCCGCGGCGGCAGCAGCAGUGAGAGUUCCAGGGUCUCCCUCCACUGCUGUAGUAACCCGGGUCCGGGGCCUCGGUGGUGCUCCGAUGCCCCUCACCCACCCCUGAAGAUCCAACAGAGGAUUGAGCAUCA,0.147 ratio
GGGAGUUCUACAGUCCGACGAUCAUAUCUUUCGUUUUGGCUUGGUUCGAGGAAGGGGAAGAAACGAUUACAGCCUUUGUAGAGCCGUUUGUAAUUCUGCUUAUCUUGGUAGCCAAUGCAAUCGUGGGUGUGUGGCAGGAAAGACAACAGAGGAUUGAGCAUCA,0.227 ratio

# Block 2
# Target: human cyclin B2
# Observed: peptide binding
# Method: yeast competitive growth sequencing
# Molecule type: peptide
# Organism: Saccharomyces cerevisiae
# Strain: cyclin B2-Cln2 fusion
# Tested at: concentration not given
# Notes: library 2
# Reading: direction not given
Sequence,binding enrichment score
LLRRLQDVANDRG,-0.825
LLKRLQDVVSERA,-1.59
PSSMRKICTYFHR,-1.78

# Block 3
# Target: Interferon regulatory factor 7, full length, phosphomimetic (IRF7, Homo sapiens, UniProt Q92985, residues 1-503, S471D/S472D/S475D/S476D/S477D/S483D/S484D/S487D)
# Sequence of UniProt Q92985 (whole entry, unmodified, looked up): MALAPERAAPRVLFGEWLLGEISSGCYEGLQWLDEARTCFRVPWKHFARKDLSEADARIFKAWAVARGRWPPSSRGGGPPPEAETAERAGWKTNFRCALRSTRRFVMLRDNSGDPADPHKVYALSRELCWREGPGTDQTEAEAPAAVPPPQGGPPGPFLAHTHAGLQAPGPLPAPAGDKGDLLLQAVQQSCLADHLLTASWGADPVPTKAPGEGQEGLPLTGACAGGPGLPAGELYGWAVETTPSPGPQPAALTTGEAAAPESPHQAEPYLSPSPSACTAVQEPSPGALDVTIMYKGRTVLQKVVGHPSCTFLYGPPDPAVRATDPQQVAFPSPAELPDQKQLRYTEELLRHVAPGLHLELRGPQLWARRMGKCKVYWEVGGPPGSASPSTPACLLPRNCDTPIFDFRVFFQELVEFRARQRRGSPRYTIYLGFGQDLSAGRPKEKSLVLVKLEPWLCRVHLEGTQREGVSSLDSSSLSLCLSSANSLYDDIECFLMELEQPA
# Method: protein-binding microarray
# Molecule type: double-stranded DNA, one strand shown
# Matrix: in vitro
# Tested at: 2200 nM top
# Notes: 60-bp whole probe
# With: salmon DNA 0.4 mg/ml
# Relative to: random background probes
# Reading: higher = stronger binding
# Shared flanks, not repeated: GCCTAGCAC … GTCTTGATTCGCTTGACGCTGCTG
Oligonucleotide,fitted relative affinity
TTAGATATAAGTCTCGATTAGTGCTAG,-0.226 z-score
TCATTTCCCAACATCAGACTGTGCTAG,2.48 z-score
AGAGCTTGTAGCCATCTTTGGTGCTAG,-0.138 z-score
GACGGACTGGACAGTGGGGACGTGCTA,-0.805 z-score
CTTGGTAAATTTAGCCGACGGTGCTAG,-0.184 z-score
GACGGTATCGGTTTGGGGACGTGCTAG,1.94 z-score
TTAGGTCTCGGACTGGGGTAGTGCTAG,-0.276 z-score
TTAGGACTGGGTTTCAGTTAGTGCTAG,0.359 z-score
GACCGTATCGGTCTCGGGACGTGCTAG,0.306 z-score
TTAGAAGTGAGACTGGATTAGTGCTAG,-0.865 z-score
TTAGCACTGGGGTATCGGTTAGTGCTA,-0.0536 z-score
GACGGACTGGATCTCGGGACGTGCTAG,-0.512 z-score
TTGGGTTTCGACTTTCGGTTAGTGCTA,9.68 z-score
TTAGGTTTCGGTATGGGTTAGTGCTAG,7.36 z-score
TTAGATTTCAGGATCGATTAGTGCTAG,0.319 z-score
TTATGACTGGACACTGGGTTAGTGCTA,-0.198 z-score
GTAGGACTGGACACTGGGTTAGTGCTA,-0.851 z-score
ACTCAGTAACATTATTGTAGGTGCTAG,0.88 z-score
GACGTTATCGGGTATCGAGACGTGCTA,0.439 z-score

# Block 4
# Target: RNA binding protein fox-1 homolog 2, RRM domain, GST-SBP tag (RBFOX2, Homo sapiens, UniProt O43251-10, residues 100-194)
# Method: RNA Bind-n-Seq
# Molecule type: RNA
# Matrix: in vitro
# Tested at: 365 nM
# Notes: natural RNA segment, single round, ends assumed
# Relative to: no-protein control
# Reading: higher = stronger binding
# Construct (chain): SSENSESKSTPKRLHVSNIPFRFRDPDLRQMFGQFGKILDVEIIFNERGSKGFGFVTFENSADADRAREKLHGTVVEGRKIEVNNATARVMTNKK
Oligonucleotide,RBNS enrichment (R)
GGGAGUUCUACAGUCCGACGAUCUGCCCUUGGGGGUUGCAGGCUGCCCCCUUCCUGCCAGACCGGAGGGGCUGGGGGGAUCCCAGCAGGGGGAGGGCAAUCCCUUCACCCCAGUUGCCAAACAGACCCCCCACUGGAAUUCUCGGGUGCCAA,0.323
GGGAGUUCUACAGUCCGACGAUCAAUGAAAGAUAGUGAUCUUUUAGGCCUUCAUUUAUCUUCUAAAAUUCCUCAUCUCAAGGCCACCAGUCCCCAGUUAUCACCCUUGGAAAUCCUCUGUUUAGCUUAGUUGCUGGAAUUCUCGGGUGCCAA,0.577
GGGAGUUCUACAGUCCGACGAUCUGUAAUUGAGAGCUCAUUUCAAAAGCAGAAAAAGACAACAAAUAUUAAAGCAAGGAAAAGUGUAACUGAAACACUGCACUUUACUGUUUUAUACUUUUGUACAUAUGAGAUGGAAUUCUCGGGUGCCAA,0.255
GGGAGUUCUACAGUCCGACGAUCACCCAGAGAUUUUUGAGGGAUGAACGGGUAGACAAGGACUGAGAUUGCCUCUGACUUCCUCCUCCCCUGGGUUCUGACUUCUUCCUCCCCUUGCUUCCAGGGAAGAUGAAUGGAAUUCUCGGGUGCCAA,1.66
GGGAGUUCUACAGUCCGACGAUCUUAUGAGCUGAACAUAAAAAGUUUUGGCUGGCUUAUGUGAUUGAGGCCAUUAACACUGAUAAGUAUGAAUAUACAGAUAUGGCUUAGGUUUCUUCAAGAGGAAACAUAUUUGGAAUUCUCGGGUGCCAA,0.834
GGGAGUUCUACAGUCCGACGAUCAGUGAUAAUCACAGGAAAAGAUGCCUUCUAAAGACUUGGGCAUAAAAGCUUAAAUAUUCUUUCUUUUAAAUGUCUGUUAAGAAUAUGAUGCCAAUGGCUUGAAUUGAGUUUGGAAUUCUCGGGUGCCAA,0.541
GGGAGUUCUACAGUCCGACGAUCACCCUGGGUCCCACACUGAAAUCCCCUCUAGUCACCCAUUCCCACCCCCCAGGGAGCUGCCUCCCAGGCAGGGGGUGCAGAAAAUGAUUGAUGGGCUGGGGAACCCUGGAUGGAAUUCUCGGGUGCCAA,0.167
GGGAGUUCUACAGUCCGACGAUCAAGCAAUUCCCAUUGCAGCAGGUUAGAGCGAGAAUCAGACAGAGGGCAAAAACCAAUUCGCUUCUCCCCACGUUCUAAAUGCUGGGGCAUGGCUGUCAGGAGGGCUUCCUUGGAAUUCUCGGGUGCCAA,0.233

# Mixed results
Substance,target,test,test system,conditions,how to read,endpoint,result
"PhoQ, residues 284 288 289 292 302 303 TYGVAM","PhoP, residues 12 14 15 18 19 AQALL (Escherichia coli, UniProt P23836)","Sort-seq, measured: YFP reporter",E. coli,"PhoQ-PhoP variant library, with: 10 µM Mg2+","relative to: high Mg2+ state, higher = stronger signaling",fold induction,16.2

# Repeated from above (block 3):
Oligonucleotide,fitted relative affinity
TTGGGTTTCGACTTTCGGTTAGTGCTA,9.68 z-score
TTAGGTTTCGGTATGGGTTAGTGCTAG,7.36 z-score
TTAGATTTCAGGATCGATTAGTGCTAG,0.319 z-score
TTATGACTGGACACTGGGTTAGTGCTA,-0.198 z-score
